Measured values pooled from the literature.
Parts stem from different laboratories: compare values within a part only. Substitutions count along the parent as printed.

Series 1
Target: Fragile X messenger ribonucleoprotein 1, C-terminal low-complexity region (Fmr1, Mus musculus, UniProt P35922)
Method: RNA Bind-n-Seq
Form: RNA
Sample: in vitro
Concentration: 200 nM
Setting: whole 134-nt RNA, ends assumed
With: 150 mM KCl
Relative to: input library
Reading: higher = stronger binding
| Strand | log2 enrichment |
| --- | --- |
| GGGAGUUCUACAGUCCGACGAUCGCAGGAAGUAAAAACAAAUGGAAAUGCUUCGGAUAGUGGCAGGGGUGGGGGUUGCUAAGGAAAGGGUGGGCUGGGAGUGGGUAAAGAGUUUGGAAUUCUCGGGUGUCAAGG | 0.146 |
| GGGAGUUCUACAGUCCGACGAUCCCUCAAGUCCUGUGCUACACAUCGUAUGUACCGAAUCGGUUGGUUGGGUUGGGAAAGUAUUAUGUUACGCCGUUCGGAUCUGCACUUCCAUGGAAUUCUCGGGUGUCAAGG | -0.0697 |
| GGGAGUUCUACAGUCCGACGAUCCCUCAAGUCCUGUGCUACACAUCGUAUGUACCGAAUCGGCGGGGCGGGGCGGAAAGUAUUAUGUUACGCCGUUCGGAUCUGCACUUCCAGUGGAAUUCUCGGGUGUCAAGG | 0.356 |
| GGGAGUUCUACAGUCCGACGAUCCACAGACAACACGCACCCACACAGACACAGAGGGAAGGGGUUGGGAUGGGGACAGGGUGCACAGCAGGGCGGGCUAGGACCCCAGCCCCUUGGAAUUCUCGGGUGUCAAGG | 1.36 |
| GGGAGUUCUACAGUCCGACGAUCCUCAAGUCCUGUGCUACACAUCGUAUGUACCGAAUCGGGCCGGGGCCGGGCCGGAAAGUAUUAUGUUACGCCGUUCGGAUCUGCACUUCCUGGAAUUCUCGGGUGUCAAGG | 0.0583 |
| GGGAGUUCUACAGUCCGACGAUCUGGGAGGUGGAUUUUGUUUAUUUUUUUAGCUCAUUUCCAGGGGUGGGAAUUUUUUUUUAAUAUGUGUCAUGAAUAAAGAUGUUUUUGAAAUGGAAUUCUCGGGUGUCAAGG | 0.0151 |
| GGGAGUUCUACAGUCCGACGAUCGUCCUGUGCUACACAUCGUAUGUACCGAAUCGGCCCCCGGGCCCCCGGGGCCCCCGGGGAAAGUAUUAUGUUACGCCGUUCGGAUCUGCAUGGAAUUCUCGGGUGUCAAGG | -0.93 |
| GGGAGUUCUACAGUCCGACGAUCACCAUGCAGGUGGGCAUCUUUGGGAAGUGGGGCAAGGGGGGGAUAGGGAAAGGGGUAACACUUUGGGAACAGGUGGUCCCAGGUCGUUUCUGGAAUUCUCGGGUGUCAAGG | 0.688 |
| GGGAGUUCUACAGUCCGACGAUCAAGUCCUGUGCUACACAUCGUAUGUACCGAAUCGGGGAAAAGGAAAAGGGGAAAAGGAAAGUAUUAUGUUACGCCGUUCGGAUCUGCACUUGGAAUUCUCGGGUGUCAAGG | -0.182 |
| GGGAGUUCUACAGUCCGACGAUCGCAGGAAGUAAAAACAAAUGGAAAUGCUUCGGAUAGUGGCAGGGGUGGGGGUUGCUAAGGAAAGGGUGGGAUUGGAGUGGGUAAAGAGUUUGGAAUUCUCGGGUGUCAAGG | 0.337 |

Series 2
Target: CCNA1, cyclin fold, Cln2 fusion (human)
Method: yeast growth competition, sequencing
Sample: yeast
Setting: weak parent motif
Relative to: not given
Reading: higher = stronger binding
Parent: MASTL docking peptide (human); PMIAKNLMCELDE; partner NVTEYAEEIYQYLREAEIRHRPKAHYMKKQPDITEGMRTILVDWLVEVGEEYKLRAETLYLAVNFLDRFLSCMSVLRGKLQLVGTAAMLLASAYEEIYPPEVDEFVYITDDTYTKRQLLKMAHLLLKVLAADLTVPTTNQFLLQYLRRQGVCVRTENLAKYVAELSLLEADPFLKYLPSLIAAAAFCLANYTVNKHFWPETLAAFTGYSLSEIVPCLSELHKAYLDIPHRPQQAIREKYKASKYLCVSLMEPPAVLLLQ
| Substitution | normalised enrichment score |
| --- | --- |
| PMIARNLMCELDE [K5R] | 0.0721 |
| PMIAKNCMCELDE [L7C] | 0.0111 |
| PMIAKNLLCELDE [M8L] | 0.48 |
| PMIAKNLMLELDE [C9L] | -0.124 |
| PMIGKNLMCELDE [A4G] | 0.231 |
| PMINKNLMCELDE [A4N] | 0.213 |
| PMIAKNLCCELDE [M8C] | -0.222 |
| PMIAMNLMCELDE [K5M] | 0.00866 |
| PMIAKILMCELDE [N6I] | 0.214 |
| PWIAKNLMCELDE [M2W] | 0.0744 |
| PMIAKNLMCKLDE [E10K] | 0.151 |
| PMISKNLMCELDE [A4S] | 0.0368 |
| PMIAKNLMCELFE [D12F] | 0.198 |
| PMIAKLLMCELDE [N6L] | 0.0462 |
| PMIAKNLMCHLDE [E10H] | 0.11 |
| PMIAKVLMCELDE [N6V] | 0.197 |
| PMIDKNLMCELDE [A4D] | -0.0139 |
| PMIAKNLMCELWE [D12W] | -0.166 |
| PMIAQNLMCELDE [K5Q] | 0.0414 |
| PMIAKNLMQELDE [C9Q] | 0.0843 |
| PMIATNLMCELDE [K5T] | -0.129 |
| PMIAKHLMCELDE [N6H] | 0.12 |
| PMHAKNLMCELDE [I3H] | -0.0457 |
| PMIADNLMCELDE [K5D] | 0.0553 |
| PMIAKNLMEELDE [C9E] | -0.0451 |

Series 3
Target: Sal-like protein 4, full length isoform A (SALL4, Homo sapiens, UniProt Q9UJQ4, residues 1-1053)
UniProt Q9UJQ4, sequence (whole entry, looked up): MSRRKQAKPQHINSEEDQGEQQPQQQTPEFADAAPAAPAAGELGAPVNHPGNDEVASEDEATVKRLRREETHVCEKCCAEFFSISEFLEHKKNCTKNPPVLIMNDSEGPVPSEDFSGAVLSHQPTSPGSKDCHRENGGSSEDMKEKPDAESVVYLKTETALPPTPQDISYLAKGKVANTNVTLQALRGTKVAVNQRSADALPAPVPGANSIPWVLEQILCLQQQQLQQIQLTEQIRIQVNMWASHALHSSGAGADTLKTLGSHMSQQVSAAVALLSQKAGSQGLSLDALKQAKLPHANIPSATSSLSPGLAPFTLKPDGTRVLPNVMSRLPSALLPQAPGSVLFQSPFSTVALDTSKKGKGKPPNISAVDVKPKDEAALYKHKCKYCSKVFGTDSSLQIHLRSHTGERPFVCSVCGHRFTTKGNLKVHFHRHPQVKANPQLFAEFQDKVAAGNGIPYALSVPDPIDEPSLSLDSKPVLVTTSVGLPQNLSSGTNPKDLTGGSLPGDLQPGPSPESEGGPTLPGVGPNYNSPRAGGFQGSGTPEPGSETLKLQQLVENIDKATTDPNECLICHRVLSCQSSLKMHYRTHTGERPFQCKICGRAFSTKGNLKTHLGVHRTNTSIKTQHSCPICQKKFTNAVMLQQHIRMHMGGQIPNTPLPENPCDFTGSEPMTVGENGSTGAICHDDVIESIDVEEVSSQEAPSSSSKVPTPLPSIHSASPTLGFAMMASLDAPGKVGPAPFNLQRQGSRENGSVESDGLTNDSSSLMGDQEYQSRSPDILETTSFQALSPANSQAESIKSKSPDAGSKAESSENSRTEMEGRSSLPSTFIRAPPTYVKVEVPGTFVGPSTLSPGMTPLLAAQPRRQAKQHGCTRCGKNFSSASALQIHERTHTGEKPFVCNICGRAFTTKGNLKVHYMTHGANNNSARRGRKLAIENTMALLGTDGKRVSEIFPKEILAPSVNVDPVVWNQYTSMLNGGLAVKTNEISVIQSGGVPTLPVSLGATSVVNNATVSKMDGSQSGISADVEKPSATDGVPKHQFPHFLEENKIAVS
Method: universal PBM
Form: double-stranded DNA, one strand shown
Sample: in vitro
Concentration: 600 nM
Setting: 8-mer, flanks averaged, mean of replicates
Reading: higher = stronger binding
| Strand | E-score |
| --- | --- |
| CAACCTCA | -0.059 |
| CGACTCTA | -0.103 |
| AATCTGCT | 0.0922 |
| CTTTGTAA | 0.219 |
| GGGCGACC | -0.386 |
| AACACGAA | 0.238 |
| ATCGATAC | 0.147 |
| AAGGTTCC | 0.0315 |
| CTAAGTAA | 0.221 |
| GTACATGA | 0.182 |
| GTTGAATA | 0.321 |
| AAGGCTTA | 0.0996 |
| GTCTACCA | -0.0662 |
| ACGCTGAA | -0.0752 |
| GTAGTTTA | 0.236 |
| ATTGACAG | 0.0711 |
| CTCGAAGA | -0.0522 |
| ATCAATTA | 0.351 |
| CGCGCGCC | -0.261 |
| ATCGTTCA | 0.179 |
| ACGCCCTG | -0.221 |
| GAGGGCCC | -0.403 |
| GGTAACTA | 0.1 |
| AAAGAATT | 0.212 |
| GCAGGCGA | -0.204 |

Series 4
Target: RING finger protein unkempt homolog, zinc fingers 1-6, GST-SBP tag (UNK, Homo sapiens, UniProt Q9C0B0, residues 30-357)
Method: RNA Bind-n-Seq
Form: RNA
Sample: in vitro
Concentration: not given
Setting: RNA with constant flanks, ends assumed
Relative to: input RNA pool
Reading: higher = stronger binding
Target sequence (chain): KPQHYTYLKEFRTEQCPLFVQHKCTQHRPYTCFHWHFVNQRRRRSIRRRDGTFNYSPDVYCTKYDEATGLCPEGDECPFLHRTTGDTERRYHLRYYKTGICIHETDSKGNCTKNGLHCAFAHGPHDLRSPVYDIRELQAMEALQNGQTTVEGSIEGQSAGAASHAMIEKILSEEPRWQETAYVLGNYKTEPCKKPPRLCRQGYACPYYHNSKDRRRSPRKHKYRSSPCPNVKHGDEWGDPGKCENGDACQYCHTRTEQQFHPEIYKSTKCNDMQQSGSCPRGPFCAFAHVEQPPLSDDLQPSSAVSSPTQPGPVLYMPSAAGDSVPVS
| Strand | bound/input enrichment |
| --- | --- |
| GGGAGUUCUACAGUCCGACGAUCGGUUUGCAAAUUUUUUUUAAAUGCAAUCUUUUUAUUUUUCUACUUGGUUUUGGUUAUAAUCACCGAAAGCAAGAAACUAUUAUUGAAAUUAAUGUUUUCUUCUGAUAUAAUAAUGGAAGCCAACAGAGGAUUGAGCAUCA | 1.4 ratio |
| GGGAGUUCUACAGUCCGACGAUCUGUGGCGCCAGAGGCCUAGGUGCUGACCCCGGCUUAGAGAGAAGAAAGAAUAUCUUGUUCUUUGUCCGAAAUCUCCACAGCAAGAGUAGUACUUGGUGGGAUGAACAUCUUUCUGAAGAACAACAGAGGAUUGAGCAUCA | 0.112 ratio |
| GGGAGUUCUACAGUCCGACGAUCCUCCAAGUUCGAAGCAUUCAGCAAGUGGUGGCAAGGCAGAGCCACCAGAAGAGGGCACCCCGUUUCCAUGACAAAUAUGGGAAUGCUAUAUUAGCAGGUGGAGCCAUCUUCUGUGUUUCUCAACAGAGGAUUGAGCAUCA | 0.164 ratio |
| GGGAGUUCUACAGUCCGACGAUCAUUUUGUAAAUACUGUAUACCAUGUAUUAUGUGUAUAUUGUUCAUACUUGAGAGGUAUAUUACCGUUUUGUUAUGAAAGUAUGUAUUUUGCCCUGCCCACAUUGCAGGUGUUUUGUAUAUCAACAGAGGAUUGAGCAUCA | 0.346 ratio |
| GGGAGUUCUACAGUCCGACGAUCUAUUUUUAUAAUUUUUACUGAUGCUCAGUAACCAUGAAAAACUGUGCACAUUCAUGUACUAACCGAUCUGUACCUAUCUAUCUCUGUACGCAUAUAUACAGUUCACUGUAGAAAACCACACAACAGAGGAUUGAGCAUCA | 3.99 ratio |
| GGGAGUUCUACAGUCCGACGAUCGCCCGGAAAACUGUGAAAAAAAUACUUAGUGACAUUGGGUUGGAAUACUGUAAAGAACAUACCGAAGAUUUUAAACAAUUUGAACCUAAUGACUUUUAUUUGAAAAACACUACAUGGGAGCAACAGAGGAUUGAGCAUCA | 0.393 ratio |
| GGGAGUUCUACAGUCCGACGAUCAGUAUUAAAAAGAUCAUACAUGUGCUGGAGAAGGUGCAGUUUCUUGAGCAAGAAGCCGAAGAGUUUGCCGGAAAAAAGACAGACAAAGCGUAUUGGCUUCUGGAAGAAAUGCUGACAAAGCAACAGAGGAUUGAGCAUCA | 0.196 ratio |
| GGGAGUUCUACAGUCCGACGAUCAGCAGCGGAGAGUUUCUGGGGCGCACCUCCAAGAGCUGGGGUCUGAUCUUGCUCUUCUACCCCGUUUUUUAUGGGUUCUUGGCUGCACUCUUCACAUUCACAAUGUGGGCCAUGCUCCAGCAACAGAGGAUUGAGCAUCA | 0.142 ratio |
| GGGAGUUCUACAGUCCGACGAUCCUUGAAUGGCUUAGGGCUCAACCAGACUGUUGAUCUCCUCAUGCAAGAGUCAGGAUGUCGUUCCGAACAUCCUUCUGCUACCAAAUUCCGAAAUCAUGUCAUGGAAGGAGACUGGGAUAACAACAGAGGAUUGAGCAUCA | 0.0648 ratio |
| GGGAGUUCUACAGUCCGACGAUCGAAAGAGAAGCUAAAACAACUGAUUGAGAAGAGGAUUGGCAAAGAGAAUUUCAUAGAGAAACCCGGAUUUAUUAGCAAACAUGAGUUGUAUUCCAGAGCAUCUCAGAAACCCCAGCCAAACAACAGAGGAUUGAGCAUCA | 2.16 ratio |
| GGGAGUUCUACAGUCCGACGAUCCCUGACAGUAUGCUGGCGCACAUGUUCAAGGACAAAGGUGUCUGGGGAAAUAAGCAAGAUCACCGAGGAGCAUUCUUAAUUGACCGAAGUCCUGAGUACUUUGAACCUAUUUUGAACUACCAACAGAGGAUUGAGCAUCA | 0.148 ratio |
